{"data": "Results collected from several papers", "B1": "lapB 21-389 (Escherichia coli, UniProt P0AB58); sequence looked up; chain RRSAQQNKQDEANRLSRDYVAGVNFLLSNQQDKAVDLFLDMLKEDTGTVEAHLTLGNLFRSRGEVDRAIRIHQTLMESASLTYEQRLLAIQQLGRDYMAAGLYDRAEDMFNQLTDETDFRIGALQQLLQIYQATSEWQKAIDVAERLVKLGKDKQRVEIAHFYCELALQHMASDDLDRAMTLLKKGAAADKNSARVSIMMGRVFMAKGEYAKAVESLQRVISQDRELVSETLEMLQTCYQQLGKTAEWAEFLQRAVEENTGADAELMLADIIEARDGSEAAQVYITRQLQRHPTMRVFHKLMDYHLNEAEEGRAKESLMVLRDMVGEKVRSKPRYRCQKCGFTAYTLYWHCPSCRAWSTIKPIRGLDGL", "B2": "tryptophanyl-tRNA synthetase residues 206-593 (Cryptosporidium parvum, UniProt F0X4V6); chain GPGSMPWEVKADNAYGIDYNKLIDKFGCKLITKDMIERMERLTGQKAHHFFRRNIFLSHRDFEKILDVYEKGELFYLYTGRGPSSESLHVGHLVPFLFTKYLQDTFKVPLVIQLTDDEKFIFKSNLTLEETHNYAYENMKDIIACGFDPELTFIFTNLEYIAELYPDILRIEKKISCSQIKSIFGFKDSCNVGKFAFPAVQAAPAFSSSFPHIFGGRTDIHCLVPHAIDQDPYFRMVRDVAPRLGYLKPSSIHSIFLPSLQGSQTKMSASVQNSSIFVNDNEESIRNKIMKYAFSGGQATEEEQRRLGANLDVDVSWQYLRFLMEDDEKLEEIGKKYSSGEMLSGEIKSILVQELVKLTKNHQKNREAINDDVIAKFTNKSREQLLKLFINKK", "B3": "Pah F80R (Rattus norvegicus, UniProt P04176); sequence looked up; chain MAAVVLENGVLSRKLSDFGQETSYIEDNSNQNGAISLIFSLKEEVGALAKVLRLFEENDINLTHIESRPSRLNKDEYEFRTYLDKRTKPVLGSIIKSLRNDIGATVHELSRDKEKNTVPWFPRTIQELDRFANQILSYGAELDADHPGFKDPVYRARRKQFADIAYNYRHGQPIPRVEYTEEEKQTWGTVFRTLKALYKTHACYEHNHIFPLLEKYCGFREDNIPQLEDVSQFLQTCTGFRLRPVAGLLSSRDFLGGLAFRVFHCTQYIRHGSKPMYTPEPDICHELLGHVPLFSDRSFAQFSQEIGLASLGAPDEYIEKLATIYWFTVEFGLCKEGDSIKAYGAGLLSSFGELQYCLSDKPKLLPLELEKTACQEYSVTEFQPLYYVAESFSDAKEKVRTFAATIPRPFSVRYDPYTQRVEVLDNTQQLKILADSINSEVGILCNALQKIKS", "B4": "sso0001 1-202 C191A (Sulfolobus solfataricus, UniProt Q97TX9); chain MITEFLLKKKLEEHLSHVKEENTIYVTDLVRCPRRVRYESEYKELAISQVYAPSAILGDILHLGLESVLKGNFNAETEVETLREINVGGKVYKIKGRADAIIRNDNGKSIVIEIKTSRSDKGLPLIHHKMQLQIYLWLFSAEKGILVYITPDRIAEYEINEPLDEATIVRLAEDTIMLQNSPRFNWECKYAIFSVICPAKLT", "B5": "xseA H238A (Escherichia coli, UniProt P04994); sequence looked up; chain MLPSQSPAIFTVSRLNQTVRLLLEHEMGQVWISGEISNFTQPASGHWYFTLKDDTAQVRCAMFRNSNRRVTFRPQHGQQVLVRANITLYEPRGDYQIIVESMQPAGEGLLQQKYEQLKAKLQAEGLFDQQYKKPLPSPAHCVGVITSKTGAALHDILHVLKRRDPSLPVIIYPAAVQGDDAPGQIVRAIELANQRNECDVLIVGRGGGSLEDLWSFNDERVARAIFTSRIPVVSAVGAETDVTIADFVADLRAPTPSAAAEVVSRNQQELLRQVQSTRQRLEMAMDYYLANRTRRFTQIHHRLQQQHPQLRLARQQTMLERLQKRMSFALENQLKRTGQQQQRLTQRLNQQNPQPKIHRAQTRIQQLEYRLAETLRAQLSATRERFGNAVTHLEAVSPLSTLARGYSVTTATDGNVLKKVKQVKAGEMLTTRLEDGWIESEVKNIQPVKKSRKKVH", "B6": "PGL-3 1-447 (Caenorhabditis elegans, UniProt G5EBV6); sequence looked up; chain MEANKRQIVEVDGIKSYFFPHLAHYLASNDELLVNNIAQANKLAAFVLGATDKRPSNEEIAEMILPNDSSAYVLAAGMDVCLILGDDFRPKFDSGAEKLSQLGQAHDLAPIIDDEKKISMLARKTKLKKSNDAKILQVLLKVLGAEEAEEKFVELSELSSALDLDFDVYVLAKLLGFASEELQEEIEIIRDNVTDAFEACKPLLKKLMIEGPKIDSVDPFTQLLLTPQEESIEKAVSHIVARFEEASAVEDDESLVLKSQLGYQLIFLVVRSLADGKRDASRTIQSLMPSSVRAEVFPGLQRSVFKSAVFLASHIIQVFLGSMKSFEDWAFVGLAEDLESTWRRRAIAELLKKFRISVLEQCFSQPIPLLPQSELNNETVIENVNNALQFALWITEFYGSESEKKSLNQLQFLSPKSKNLLVDSFKKFAQGLDSKDHVNRIIESLEK", "B7": "tsaM1 (Comamonas testosteroni, UniProt P94679); sequence looked up; chain MFIRNCWYVAAWDTEIPAEGLFHRTLLNEPVLLYRDTQGRVVALENRCCHRSAPLHIGRQEGDCVRCLYHGLKFNPSGACVEIPGQEQIPPKTCIKSYPVVERNRLVWIWMGDPARANPDDIVDYFWHDSPEWRMKPGYIHYQANYKLIVDNLLDFTHLAWVHPTTLGTDSAASLKPVIERDTTGTGKLTITRWYLNDDMSNLHKGVAKFEGKADRWQIYQWSPPALLRMDTGSAPTGTGAPEGRRVPEAVQFRHTSIQTPETETTSHYWFCQARNFDLDDEALTEKIYQGVVVAFEEDRTMIEAHEKILSQVPDRPMVPIAADAGLNQGRWLLDRLLKAENGGTAP", "B8": "Pgi1 (Azotobacter vinelandii, UniProt C1DDK7); sequence looked up; chain MSYYQQAFDVTSLPSWRALQEHRLAMQNFHMREAFLSDPGRFDEFSTSSCGLFLDYSKNLITPETRDLLVNLAREAGVEQAARAMFDGEPVNASERRPALHTALRRPVGDSLLIDGHNIMRDVHAALAQMTDIVGRIHNKLWRGYSDRAITDVVNIGIGGSYLGPELVSEALLPYTQHGVRCHYLANIDGSEFHELTARLNAETTLFIISSKTFGTLETLKNAQAARTWYLASGGSEERLYRHFIAVTSNIPAAIEFGIREKNIFPMWDWVGGRYSLWSAIGLPTALAIGMANFKDLLSGAYAMDCHFRREPFENNMPVLLAMLGVWYGNFWGAQSHAILPYDHYLRNFVKHLQQMDMESNGKSVRQDGSPVSCETGPVIWGGVGCNGQHAYHQLLHQGTLLIPADFIVPVVSHNPVADHHQWLYANCLSQSQALMLGKSREEAEAELRAKGLPEAEVKRLAPHKVIPGNRPSNTLVMETLNPSRLGALIALYEHKVFVQGVIWGINSFDQWGVELGKELGKNVYGRLTSYEAPPAEDSSTQGLIDYFRGRHRG", "B9": "protein 660-963 (Penicillium verruculosum, UniProt A0A348FUE1); sequence looked up; chain SYYQRSDWTADEEQILLGPFDYLESLPGKNMRSQLIQSFNTWLKVPTESLDVIIKVISMLHTASLLIDDIQDQSILRRGQPVAHSIFGTAQAMNSGNYVYFLALREVQKLQNPKAISIYVDSLIDLHRGQGMELFWRDSLMCPTEEQYLDMVANKTGGLFCLAIQLMQAEATIQVDFIPLVRLLGIIFQICDDYLNLKSTAYTDNKGLCEDLTEGKFSFPIIHSIRSNPGNRQLINILKQKPREDDIKRYALSYMESTNSFEYTRGVVRKLKTEAIDTIQGLEKHGLEENIGIRKILARMSLEL", "B10": "Per2 1-506 (Mus musculus, UniProt O54943); sequence looked up; chain MNGYVDFSPSPTSPTKEPGAPQPTQAVLQEDVDMSSGSSGNENCSTGRDSQGSDCDDNGKELRMLVESSNTHPSPDDAFRLMMTEAEHNPSTSGCSSEQSAKADAHKELIRTLKELKVHLPADKKAKGKASTLATLKYALRSVKQVKANEEYYQLLMSSESQPCSVDVPSYSMEQVEGITSEYIVKNADMFAVAVSLVSGKILYISNQVASIFHCKKDAFSDAKFVEFLAPHDVSVFHSYTTPYKLPPWSVCSGLDSFTQECMEEKSFFCRVSVGKHHENEIRYQPFRMTPYLVKVQEQQGAESQLCCLLLAERVHSGYEAPRIPPEKRIFTTTHTPNCLFQAVDERAVPLLGYLPQDLIETPVLVQLHPSDRPLMLAIHKKILQAGGQPFDYSPIRFRTRNGEYITLDTSWSSFINPWSRKISFIIGRHKVRVGPLNEDVFAAPPCPEEKTPHPSVQELTEQIHRLLMQPVPHSGSSGYGSLGSNGSHEHLMSQTSSSDSNGQEE", "B11": "RNASE1 mature P114A/H119A (Bos taurus, UniProt P61823); sequence looked up; chain KETAAAKFERQHMDSSTSAASSSNYCNQMMKSRNLTKDRCKPVNTFVHESLADVQAVCSQKNVACKNGQTNCYQSYSTMSITDCRETGSSKYPNCAYKTTQANKHIIVACEGNAYVPVAFDASV", "B12": "protein S723T (Penicillium verruculosum, UniProt A0A348FUE1); sequence looked up; chain MSPMDLQESAAALVRQLGERVEDRRGFGFMSPAIYDTAWVSMISKTIDDQKTWLFAECFQYILSHQLEDGGWAMYASEIDAILNTSASLLSLKRHLSNPYQITSITQEDLSARINRAQNALQKLLNEWNVDSTLHVGFEILVPALLRYLEDEGIAFAFSGRERLLEIEKQKLSKFKAQYLYLPIKVTALHSLEAFIGAIEFDKVSHHKVSGAFMASPSSTAAYMMHATQWDDECEDYLRHVIAHASGKGSGGVPSAFPSTIFESVWPLSTLLKVGYDLNSAPFIEKIRSYLHDAYIAEKGILGFTPFVGADADDTATTILVLNLLNQPVSVDAMLKEFEEEHHFKTYSQERNPSFSANCNVLLALLYSQEPSLYSAQIEKAIRFLYKQFTDSEMDVRDKWNLSPYYSWMLMTQAITRLTTLQKTSKLSTLRDDSISKGLISLLFRIASTVVKDQKPGGSWGTRASKEETAYAVLILTYAFYLDEVTESLRHDIKIAIENGCSFLSERTMQSDSEWLWVEKVTYKSEVLSEAYILAALKRAADLPDENAEAAPVINGISTNGFEHTDRINGKLKVNGTNGTNGSHETNGINGTHEIEQINGVNGTNGHSDVPHDTNGWVEEPTAINETNGHYVNGTNHETPLTNGISNGDSVSVHTDHSDSYYQRSDWTADEEQILLGPFDYLESLPGKNMRSQLIQSFNTWLKVPTESLDVIIKVISMLHTATLLIDDIQDQSILRRGQPVAHSIFGTAQAMNSGNYVYFLALREVQKLQNPKAISIYVDSLIDLHRGQGMELFWRDSLMCPTEEQYLDMVANKTGGLFCLAIQLMQAEATIQVDFIPLVRLLGIIFQICDDYLNLKSTAYTDNKGLCEDLTEGKFSFPIIHSIRSNPGNRQLINILKQKPREDDIKRYALSYMESTNSFEYTRGVVRKLKTEAIDTIQGLEKHGLEENIGIRKILARMSLEL", "B13": "TGFBI FAS1-4 domain, residues 502-657 A546T (Homo sapiens, UniProt Q15582); chain AGMGTVMDVLKGDNRFSMLVAAIQSAGLTETLNREGVYTVFAPTNETFRALPPRERSRLLGDAKELANILKYHIGDEILVSGGIGALVRLKSLQGDKLEVSLKNNVVSVNKEPVAEPDIMATNGVVHVITNVLQPPANRPQERGDELADSALEIFKQA", "note": "Each line is one published result; not all experiments were run side by side. Values joined by “and” are separate records of one study, mostly repeats; a detail may differ.", "UniProt P26368, sequence (whole entry, looked up)": "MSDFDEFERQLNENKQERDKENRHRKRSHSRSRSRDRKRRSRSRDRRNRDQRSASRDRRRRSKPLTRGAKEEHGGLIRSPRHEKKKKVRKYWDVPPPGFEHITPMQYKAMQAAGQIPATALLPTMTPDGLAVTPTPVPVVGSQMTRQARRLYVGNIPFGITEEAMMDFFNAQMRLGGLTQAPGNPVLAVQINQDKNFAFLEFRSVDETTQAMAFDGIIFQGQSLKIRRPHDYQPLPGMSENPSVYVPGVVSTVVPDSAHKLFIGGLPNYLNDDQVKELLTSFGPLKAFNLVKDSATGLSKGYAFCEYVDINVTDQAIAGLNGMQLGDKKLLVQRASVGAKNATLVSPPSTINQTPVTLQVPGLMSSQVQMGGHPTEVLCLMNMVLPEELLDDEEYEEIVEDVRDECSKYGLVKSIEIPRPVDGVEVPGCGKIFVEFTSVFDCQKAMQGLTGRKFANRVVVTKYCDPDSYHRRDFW", "UniProt P25552, sequence (whole entry, looked up)": "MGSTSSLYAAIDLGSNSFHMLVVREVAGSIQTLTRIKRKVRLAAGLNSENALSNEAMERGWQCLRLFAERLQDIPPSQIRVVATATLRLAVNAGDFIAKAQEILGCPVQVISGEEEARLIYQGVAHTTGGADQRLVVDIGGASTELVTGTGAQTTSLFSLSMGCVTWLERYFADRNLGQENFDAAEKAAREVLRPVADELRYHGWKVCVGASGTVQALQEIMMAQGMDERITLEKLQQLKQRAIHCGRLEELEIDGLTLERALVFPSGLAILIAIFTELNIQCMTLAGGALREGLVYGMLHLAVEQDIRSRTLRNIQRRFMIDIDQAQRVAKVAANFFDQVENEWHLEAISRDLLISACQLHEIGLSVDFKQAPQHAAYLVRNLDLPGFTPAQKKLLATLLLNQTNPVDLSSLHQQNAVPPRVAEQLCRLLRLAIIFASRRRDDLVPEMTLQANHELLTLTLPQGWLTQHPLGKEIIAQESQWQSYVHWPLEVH", "UniProt P42260, sequence (whole entry, looked up)": "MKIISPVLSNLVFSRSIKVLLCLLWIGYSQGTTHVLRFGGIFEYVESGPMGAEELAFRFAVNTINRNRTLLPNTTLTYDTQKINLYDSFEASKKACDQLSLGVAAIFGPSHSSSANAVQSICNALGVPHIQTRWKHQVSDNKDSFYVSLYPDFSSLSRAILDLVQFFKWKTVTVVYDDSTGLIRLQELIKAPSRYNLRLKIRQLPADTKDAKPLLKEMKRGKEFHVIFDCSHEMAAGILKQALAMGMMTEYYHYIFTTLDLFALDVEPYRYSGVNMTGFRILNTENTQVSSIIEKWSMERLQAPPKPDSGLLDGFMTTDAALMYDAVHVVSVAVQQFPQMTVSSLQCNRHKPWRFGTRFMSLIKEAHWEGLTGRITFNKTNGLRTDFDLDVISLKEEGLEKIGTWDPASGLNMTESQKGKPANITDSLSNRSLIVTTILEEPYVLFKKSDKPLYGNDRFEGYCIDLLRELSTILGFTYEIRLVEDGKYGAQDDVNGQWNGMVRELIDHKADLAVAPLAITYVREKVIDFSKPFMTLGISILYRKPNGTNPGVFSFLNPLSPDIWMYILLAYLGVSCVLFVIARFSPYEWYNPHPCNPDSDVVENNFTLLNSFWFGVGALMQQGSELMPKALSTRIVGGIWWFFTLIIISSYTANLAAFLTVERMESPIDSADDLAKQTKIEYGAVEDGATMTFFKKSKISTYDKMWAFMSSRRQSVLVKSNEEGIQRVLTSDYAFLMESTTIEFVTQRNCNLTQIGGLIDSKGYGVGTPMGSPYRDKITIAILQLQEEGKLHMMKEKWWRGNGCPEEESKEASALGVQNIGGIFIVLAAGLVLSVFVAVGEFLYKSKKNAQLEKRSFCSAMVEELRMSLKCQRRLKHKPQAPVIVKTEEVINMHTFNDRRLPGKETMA"}
{"Molecule": "UUCACAGUU (ssRNA)", "tested on": "U2AF2 148-342 (Homo sapiens, UniProt P26368)", "test": "sequencing of bound RNA", "test system": "RNA", "setting": "motif only", "endpoint": "Kd", "value": "1.13 µM"}
{"Molecule": "Grik2 (Rattus norvegicus, UniProt P42260)", "tested on": "itself", "test": "cryo-EM", "endpoint": "subunits per oligomer", "value": 4}
{"Molecule": "B1 (lapB 21-389)", "tested on": "itself", "test": "cryo-EM", "endpoint": "subunits per oligomer", "value": 2}
{"Molecule": "B2", "tested on": "itself", "test": "X-ray crystallography", "endpoint": "subunits per oligomer", "value": 2}
{"Molecule": "B3 (Pah F80R)", "tested on": "itself", "test": "SEC", "endpoint": "subunits per oligomer", "value": 4}
{"Molecule": "B4 (sso0001 1-202 C191A)", "tested on": "itself", "test": "SEC", "endpoint": "subunits per oligomer", "value": "5 protomers"}
{"Molecule": "B5 (xseA H238A)", "tested on": "itself", "test": "mass photometry", "endpoint": "subunits per oligomer", "value": 2}
{"Molecule": "B6 (PGL-3 1-447)", "tested on": "itself", "test": "mass photometry", "endpoint": "subunits per oligomer", "value": "6 and 4"}
{"Molecule": "CER6 (Zea mays, UniProt B4G0N2)", "tested on": "itself", "test": "cryo-EM", "endpoint": "subunits per oligomer", "value": 2}
{"Molecule": "B7 (tsaM1)", "tested on": "itself", "test": "SEC", "endpoint": "subunits per oligomer", "value": 3}
{"Molecule": "B8 (Pgi1)", "tested on": "itself", "test": "cryo-EM", "endpoint": "subunits per oligomer", "value": 10}
{"Molecule": "B9 (protein 660-963)", "tested on": "itself", "test": "X-ray crystallography", "endpoint": "subunits per oligomer", "value": 6}
{"Molecule": "B10 (Per2 1-506)", "tested on": "itself", "test": "SEC", "endpoint": "subunits per oligomer", "value": 2}
{"Molecule": "gppA (Escherichia coli, UniProt P25552)", "tested on": "itself", "test": "crystal structure", "endpoint": "subunits per oligomer", "value": 4}
{"Molecule": "B11 (RNASE1 mature P114A/H119A)", "tested on": "itself", "test": "SEC", "endpoint": "subunits per oligomer", "value": 2}
{"Molecule": "B12 (protein S723T)", "tested on": "itself", "test": "class averages, 2D, cryo-EM", "endpoint": "subunits per oligomer", "value": 6}
{"Molecule": "B13", "tested on": "itself", "test": "cross-linking", "endpoint": "subunits per oligomer", "value": 2}
{"note": "Some of these lines once more:"}
{"Molecule": "Grik2 (Rattus norvegicus, UniProt P42260)", "tested on": "itself", "test": "cryo-EM", "endpoint": "subunits per oligomer", "value": 4}
{"Molecule": "B1 (lapB 21-389)", "tested on": "itself", "test": "cryo-EM", "endpoint": "subunits per oligomer", "value": 2}
